# Measured values gathered from unrelated publications.
# Each line is one published result; not all experiments were run side by side. ± marks the error that the study gave.
# Target: Mitogen-activated protein kinase 8 (MAPK8, Homo sapiens, UniProt P45983)
# Sequence of UniProt P45983 (whole entry, looked up): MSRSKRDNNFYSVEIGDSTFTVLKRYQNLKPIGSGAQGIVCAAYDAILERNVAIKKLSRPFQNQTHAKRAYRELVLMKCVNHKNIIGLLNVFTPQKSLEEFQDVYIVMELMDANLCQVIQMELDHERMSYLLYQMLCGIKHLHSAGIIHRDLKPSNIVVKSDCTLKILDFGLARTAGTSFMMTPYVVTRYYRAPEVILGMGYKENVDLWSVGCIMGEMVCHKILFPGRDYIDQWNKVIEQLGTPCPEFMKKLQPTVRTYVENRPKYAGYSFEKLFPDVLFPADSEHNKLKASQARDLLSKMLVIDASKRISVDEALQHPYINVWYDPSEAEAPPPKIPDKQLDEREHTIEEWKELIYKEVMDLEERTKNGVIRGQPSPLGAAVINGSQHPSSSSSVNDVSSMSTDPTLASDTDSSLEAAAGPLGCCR
SMILES,assay,test system,setting,measurement,result
COC(=O)[C@]1(C)C=C(C(=O)OC(C)(C)C)C(=O)CC1,"ligand displacement, FP",,,Ki,6500 nM
CC(C)CN(CC(=O)NCCCCCCNC(=O)c1ccc(-c2n[nH]c3ccccc23)cc1)C(=O)C(C)NC(=O)C1COc2ccccc2C1 (stereo not drawn),"enzyme activity, inhibitor",,,IC50,154 nM
CC(C)C[C@H](NC(=O)[C@H](CC(N)=O)NC(=O)[C@H](CC(C)C)NC(=O)[C@@H](NC(=O)[C@@H](NC(=O)[C@@H]1CCCN1C(=O)[C@H](CCCNC(=N)N)NC(=O)[C@H](CCCCN)NC(=O)[C@@H]1CCCN1)[C@@H](C)O)[C@@H](C)O)C(=O)N[C@@H](Cc1ccccc1)C(=O)NCCCCCC(=O)N[C@@H](CCCNC(=N)N)C(=O)N[C@@H](CCCNC(=N)N)C(=O)N[C@@H](CCCNC(=N)N)C(=O)N[C@@H](CCCNC(=N)N)C(=O)N[C@@H](CCCNC(=N)N)C(=O)N[C@@H](CCCNC(=N)N)C(=O)N[C@@H](CCCNC(=N)N)C(=O)N[C@@H](CCCNC(=N)N)C(=O)N[C@@H](CCCNC(=N)N)C(N)=O,"kinase activity, inhibitor, radiometric",,"pH 7.5, 30 °C, with: GST-c-Jun substrate",IC50,1100 ± 130 nM
COC(=O)[C@@]1(C)C=C(C(=O)NCc2cccc(C(=O)Nc3ccc(Nc4nccc(-c5cccnc5)n4)c(C)c3)c2)C(=O)CC1,"target engagement, NanoBRET",HEK293,"2 h, with: tracer K-5",EC50,1060 ± 150 nM
CC(C)C[C@@H](NC(=O)[C@@H](Cc1ccccc1)NC(=O)[C@H]1CCCN1C(=O)[C@@H](CCC(N)=O)NC(=O)[C@H](NC(=O)[C@H]1CCCN1C(=O)[C@@H](CCCNC(=N)N)NC(=O)[C@@H](CO)NC(=O)[C@@H](CCC(N)=O)NC(=O)[C@@H](CC(=O)O)NC(=O)[C@H](N)[C@H](C)O)C(C)C)C(=O)N[C@H](CC(N)=O)C(=O)N[C@H](CC(C)C)C(=O)N[C@@H](C(=O)N[C@@H](C(=O)N1CCC[C@@H]1C(=O)N[C@H](CCCNC(=N)N)C(=O)N[C@H](CCCCN)C(=O)N1CCC[C@@H]1C(=O)N[C@H](CCCNC(=N)N)C(=O)N1CCC[C@@H]1C(=O)N1CCC[C@@H]1C(=O)N[C@H](CCCNC(=N)N)C(=O)N[C@H](CCCNC(=N)N)C(=O)N[C@H](CCCNC(=N)N)C(=O)N[C@H](CCC(N)=O)C(=O)N[C@H](CCCNC(=N)N)C(=O)N[C@H](CCCNC(=N)N)C(=O)N[C@H](CCCCN)C(=O)N[C@H](CCCCN)C(=O)N[C@H](CCCNC(=N)N)C(=O)NCC(N)=O)[C@H](C)O)[C@H](C)O,"kinase activity, inhibitor, radiometric",,"pH 7.5, 30 °C, with: GST-c-Jun substrate",IC50,288000 ± 24000 nM
COC(=O)[C@]1(Cc2ccccc2)C=C(C(=O)OC(C)(C)C)C(=O)CC1,"ligand displacement, FP",,,Ki,1200 nM
Cc1ccc(NC(=O)Nc2cnn(-c3cccc(C(=O)Nc4ccnc(C)c4)c3)c2)cc1,"enzyme activity, inhibitor, TR-FRET",,,IC50,> 10000 nM
CC(C)C[C@H](NC(=O)[C@H](CC(N)=O)NC(=O)[C@H](CC(C)C)NC(=O)[C@@H](NC(=O)[C@@H](NC(=O)[C@@H]1CCCN1C(=O)[C@H](CCCNC(=N)N)NC(=O)[C@H](CCCCN)NC(=O)[C@@H]1CCCN1)[C@@H](C)O)[C@@H](C)O)C(=O)N[C@@H](Cc1ccccc1)C(N)=O,"kinase activity, inhibitor, radiometric",,"pH 7.5, 30 °C, with: GST-c-Jun substrate",IC50,1000 ± 50 nM
CC[C@H](C)[C@H](NC(=O)[C@@H]1CCCN1C(=O)[C@@H](NC(=O)[C@H](CC(N)=O)NC(=O)[C@H](CC(C)C)NC(=O)[C@H](CO)NC(=O)[C@H](CC(C)C)NC(=O)[C@H](CCCCN)NC(=O)[C@H](CCCNC(=N)N)NC(=O)[C@H](CCCNC(=N)N)NC(=O)[C@H](CCCNC(=N)N)NC(=O)[C@H](CO)NC(=O)[C@@H]1CCCN1C(=O)[C@H](CO)NC(=O)[C@H](C)NC(=O)[C@@H](N)Cc1ccc(O)cc1)[C@@H](C)CC)C(=O)O,"kinase activity, inhibitor, SOX fluorogenic",,"pH 7.5, with: ATP 1 mM",IC50,1100 nM

# For quick reference, copied from above:
SMILES,assay,test system,setting,measurement,result
Cc1ccc(NC(=O)Nc2cnn(-c3cccc(C(=O)Nc4ccnc(C)c4)c3)c2)cc1,"enzyme activity, inhibitor, TR-FRET",,,IC50,> 10000 nM
